Assay results pooled from the literature.
Protocols differ between the studies behind these lines. Values joined by “and” are separate records of one study, mostly repeats; a detail may differ. ± gives the spread as reported.

CC(CCC(=O)NCC(=O)O)C1CCC2C3C(O)CC4CC(OC5OC(C(=O)O)C(O)C(O)C5O)CCC4(C)C3CCC12C (stereo not shown) — glucuronide to parent ratio (men, C/C genotype, plasma; dose not given, geometric mean): 0.482
COc1cc2ncnc(Oc3ccc(Nc4nccc5[nH]cc(-c6ccc(F)cc6)c(=O)c45)cc3F)c2cc1OC — body weight gain (Sprague-Dawley rat; oral, 50 mg/kg once daily, 28 days; reference: vehicle): 32.2%
CN1Cc2cc(Cl)ccc2-n2c(nnc2C2CCN(c3cccc([18F])n3)CC2)C1 — tissue uptake (C57BL/6 mouse male, liver; intravenous, 3.7 MBq, 60 min): 10.8 ± 1.31 %ID/g
O=C1NC2(CC2)COc2ncc(F)cc2[C@H]2COCCN2c2ccn3ncc1c3n2 — fibrinogen (Sprague-Dawley rats, male, blood; oral, 5 mg/kg/day, end of recovery, 4-week subacute toxicity): 1.73 ± 0.15 g/L
C/C(=N\OCCCN1CCCCC1)c1ccc(C(F)(F)F)cc1 — AUC(0-t) (mouse, plasma; oral, 50 mg/kg twice daily, day 1): 3420 ± 683 ng·h/mL
N#[11C]c1ccc(-c2csc(NN=C3CCCC3)n2)cc1 — radioactivity uptake (C57BL/6 mice, male, bone; intravenous, 3 MBq, 15 min): 2.08 ± 0.31 %ID/g
CSCC[C@H](N)C(=O)N[C@@H](C)C(=O)N[C@@H](CCCNC(=N)N)C(=O)N[C@@H](CCCNC(=N)N)C(=O)N[C@@H](CC(=O)O)C(=O)N[C@@H](CCCCN)C(=O)N[C@H](C(=O)N[C@@H](CC(=O)O)C(=O)N[C@@H](Cc1ccccc1)C(=O)N[C@@H](C)C(=O)N[C@@H](CCCNC(=N)N)C(=O)N[C@@H](CCCNC(=N)N)C(=O)N[C@@H](CCCNC(=N)N)C(=O)N[C@@H](CCCNC(=N)N)C(=O)NCCCCCC(=O)NCCCCC(NC(=O)CCCCCNC(=O)[C@H](CCCNC(=N)N)NC(=O)[C@H](CCCNC(=N)N)NC(=O)[C@H](CCCNC(=N)N)NC(=O)[C@H](CCCNC(=N)N)NC(=O)[C@H](C)NC(=O)[C@H](Cc1ccccc1)NC(=O)[C@H](CC(=O)O)NC(=O)[C@@H](NC(=O)[C@H](CCCCN)NC(=O)[C@H](CC(=O)O)NC(=O)[C@H](CCCNC(=N)N)NC(=O)[C@H](CCCNC(=N)N)NC(=O)[C@H](C)NC(=O)[C@@H](N)CCSC)[C@@H](C)O)C(=O)NCCCCC(NC(=O)C(CCCCNC(=O)CCCCCNC(=O)[C@H](CCCNC(=N)N)NC(=O)[C@H](CCCNC(=N)N)NC(=O)[C@H](CCCNC(=N)N)NC(=O)[C@H](CCCNC(=N)N)NC(=O)[C@H](C)NC(=O)[C@H](Cc1ccccc1)NC(=O)[C@H](CC(=O)O)NC(=O)[C@@H](NC(=O)[C@H](CCCCN)NC(=O)[C@H](CC(=O)O)NC(=O)[C@H](CCCNC(=N)N)NC(=O)[C@H](CCCNC(=N)N)NC(=O)[C@H](C)NC(=O)[C@@H](N)CCSC)[C@@H](C)O)NC(=O)CCCCCNC(=O)[C@H](CCCNC(=N)N)NC(=O)[C@H](CCCNC(=N)N)NC(=O)[C@H](CCCNC(=N)N)NC(=O)[C@H](CCCNC(=N)N)NC(=O)[C@H](C)NC(=O)[C@H](Cc1ccccc1)NC(=O)[C@H](CC(=O)O)NC(=O)[C@@H](NC(=O)[C@H](CCCCN)NC(=O)[C@H](CC(=O)O)NC(=O)[C@H](CCCNC(=N)N)NC(=O)[C@H](CCCNC(=N)N)NC(=O)[C@H](C)NC(=O)[C@@H](N)CCSC)[C@@H](C)O)C(N)=O)[C@@H](C)O (stereo partly shown) — tissue distribution (C57BL/6 mouse female, stomach; dose not given, 3 h; reference: total): 31.6% and 47.8% and 53.4%
CC(=O)NCCCC[C@@H]1NC(=O)[C@H](Cc2c[nH]c3c(C)cccc23)NC(=O)[C@H]([C@@H](C)O)NC(=O)[C@H](CC(N)=O)NC(=O)[C@@H](NC(C)=O)C(C)(C)SSC(C)(C)[C@@H](C(=O)N[C@@H](Cc2ccc(OCCN)cc2)C(=O)N[C@@H](Cc2ccc3ccccc3c2)C(=O)NC2(C(=O)N[C@@H](CCC(=O)O)C(=O)N[C@@H](CC(N)=O)C(=O)N[C@@H](Cc3cccnc3)C(=O)N(C)CC(N)=O)CCOCC2)NC1=O — CL/F (human, plasma; oral, 10 mg, single dose, healthy volunteers): 7430 L/h
CC[C@H](C)[C@H](NC(=O)[C@H](CCCCN)NC(=O)CNC(=O)[C@H](CC(C)C)NC(=O)[C@H](Cc1ccccc1)NC(=O)[C@H](CCCCN)NC(=O)[C@H](CO)NC(=O)[C@H](Cc1ccccc1)NC(=O)[C@H](Cc1c[nH]c2ccccc12)NC(=O)[C@H](CCC(N)=O)NC(=O)[C@@H](NC(=O)[C@H](Cc1ccccc1)NC(=O)CCCCCNC(=O)CN1CCN(CC(=O)O)CCN(CC(=O)O)CCN(CC(=O)O)CC1)C(C)C)C(=O)N[C@@H](CCC(=O)O)C(=O)N1CCC[C@H]1C(=O)N[C@@H](CC(=O)O)C(=O)N[C@H](C(=O)N[C@@H](CO)C(=O)N[C@@H](CCC(N)=O)C(=O)N[C@H](C(=O)N[C@@H](CCC(N)=O)C(=O)N[C@@H](CC(=O)O)C(=O)N1CCC[C@H]1C(=O)N[C@@H](CC(N)=O)C(=O)N[C@@H](CC(=O)O)C(=O)N[C@@H](CCC(N)=O)C(=O)N[C@@H](Cc1ccc(O)cc1)C(=O)N[C@@H](CCC(=O)O)C(=O)N1CCC[C@H]1C(=O)N[C@@H](Cc1ccccc1)C(=O)O)C(C)C)C(C)C [copper-64 labelled] — tissue uptake (C57BL/6 mice, male, tumour-free, liver; 1 h): 20.4 ± 2.2 %ID/g
O=C(c1cc(Cc2n[nH]c(=O)c3ccccc23)ccc1F)N1CC(CNC2CC2)C1 — half-life (female ICR mouse, plasma; oral, 60 mg/kg): 58.2 min
CCCCC[C@@H]1NC(=O)[C@@H](C)N(C)C(=O)[C@H](CCCCC)N(C)C(=O)[C@@H](C)N(C)C(=O)[C@H](CCCCC)N(C)C(=O)[C@@H](C)N(C)C(=O)[C@H](CCCCC)NC(=O)[C@@H](C)N(C)C1=O — log Papp (PAMPA; 500 µM, pH 7.4): 4.79 ×10⁻⁶ cm/s
C#Cc1c(F)ccc2cc(O)cc(-c3ncc4c(N5CC6CCC(C5)N6C(=O)OC(C)OC(=O)CCC5CCCC5)nc(OC[C@@]56CCCN5C[C@H](F)C6)nc4c3F)c12 (stereo partly shown) — t1/2 (measured: prodrug; mouse whole blood; 1 µM): 4.81 min
CCCCCCCCCCCCCCCC(=O)N[C@@H](CCC(=O)NCCOCCOCCC(=O)NCCOCCOCCC(=O)NCCCC[C@H](NC(=O)[C@H](CC(=O)O)NC(=O)[C@H](CC(C)C)NC(=O)[C@H](Cc1ccc(O)cc1)NC(=O)[C@H](CCCCN)NC(=O)[C@H](CO)NC(=O)[C@H](Cc1ccc(O)cc1)NC(=O)[C@H](CC(=O)O)NC(=O)[C@H](CO)NC(=O)[C@@H](NC(=O)[C@H](Cc1ccccc1)NC(=O)[C@@H](NC(=O)CNC(=O)[C@H](CCC(N)=O)NC(=O)[C@@H](CO)NC(=O)[C@@H](N)Cc1c[nH]cn1)[C@@H](C)O)[C@@H](C)O)C(=O)N[C@@H](CCCNC(=N)N)C(=O)N[C@@H](CCCNC(=N)N)C(=O)N[C@@H](C)C(=O)N[C@@H](CCC(N)=O)C(=O)N[C@@H](CC(=O)O)C(=O)N[C@@H](Cc1ccccc1)C(=O)N[C@H](C(=O)N[C@@H](CCC(N)=O)C(=O)N[C@@H](Cc1c[nH]c2ccccc12)C(=O)N[C@@H](CC(C)C)C(=O)N[C@@H](CC(C)C)C(=O)N[C@@H](CC(N)=O)C(=O)N[C@H](C(=O)NCC(=O)NCC(=O)N1CCC[C@H]1C(=O)N[C@@H](CO)C(=O)N[C@@H](CO)C(=O)NCC(=O)N[C@@H](C)C(=O)N1CCC[C@H]1C(=O)N1CCC[C@H]1C(=O)N1CCC[C@H]1C(=O)N[C@@H](CO)C(N)=O)[C@@H](C)O)C(C)C)C(=O)O — serum enzyme activity (measured: AST; rhesus monkey, male; subcutaneous, 300 µg/kg once daily, 28 days): 47.9 ± 15.5 U/L
